# Assay results of several laboratories.
# Each numbered part is a random draw from the data of one study; scales do not carry over between parts.
# Sequence of UniProt P10721 (whole entry, unmodified, looked up): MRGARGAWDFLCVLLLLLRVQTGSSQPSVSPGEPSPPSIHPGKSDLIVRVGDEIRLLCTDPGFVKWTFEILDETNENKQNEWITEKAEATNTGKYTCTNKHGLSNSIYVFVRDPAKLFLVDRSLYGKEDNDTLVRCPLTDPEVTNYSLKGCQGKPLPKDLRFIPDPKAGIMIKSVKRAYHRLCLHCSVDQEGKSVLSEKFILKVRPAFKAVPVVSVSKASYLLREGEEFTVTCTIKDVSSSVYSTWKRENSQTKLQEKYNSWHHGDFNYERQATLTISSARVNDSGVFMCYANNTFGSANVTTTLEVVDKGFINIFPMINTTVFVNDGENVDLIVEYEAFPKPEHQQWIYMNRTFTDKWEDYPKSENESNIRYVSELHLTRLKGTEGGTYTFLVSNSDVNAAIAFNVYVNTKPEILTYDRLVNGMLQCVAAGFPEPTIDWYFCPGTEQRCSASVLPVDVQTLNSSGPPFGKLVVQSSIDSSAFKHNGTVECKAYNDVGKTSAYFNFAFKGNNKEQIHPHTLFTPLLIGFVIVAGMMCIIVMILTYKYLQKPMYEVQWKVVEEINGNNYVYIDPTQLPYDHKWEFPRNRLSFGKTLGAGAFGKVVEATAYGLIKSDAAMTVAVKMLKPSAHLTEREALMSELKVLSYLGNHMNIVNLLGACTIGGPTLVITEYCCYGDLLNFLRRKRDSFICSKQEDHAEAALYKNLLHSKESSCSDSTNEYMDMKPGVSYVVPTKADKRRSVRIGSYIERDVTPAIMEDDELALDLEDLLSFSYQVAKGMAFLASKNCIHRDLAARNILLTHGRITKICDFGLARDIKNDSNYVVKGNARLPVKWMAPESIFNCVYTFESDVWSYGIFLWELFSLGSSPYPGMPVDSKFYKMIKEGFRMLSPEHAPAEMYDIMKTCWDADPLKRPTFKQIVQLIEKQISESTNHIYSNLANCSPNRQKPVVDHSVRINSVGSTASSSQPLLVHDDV
# Sequence of UniProt Q6ZWH5 (whole entry, looked up): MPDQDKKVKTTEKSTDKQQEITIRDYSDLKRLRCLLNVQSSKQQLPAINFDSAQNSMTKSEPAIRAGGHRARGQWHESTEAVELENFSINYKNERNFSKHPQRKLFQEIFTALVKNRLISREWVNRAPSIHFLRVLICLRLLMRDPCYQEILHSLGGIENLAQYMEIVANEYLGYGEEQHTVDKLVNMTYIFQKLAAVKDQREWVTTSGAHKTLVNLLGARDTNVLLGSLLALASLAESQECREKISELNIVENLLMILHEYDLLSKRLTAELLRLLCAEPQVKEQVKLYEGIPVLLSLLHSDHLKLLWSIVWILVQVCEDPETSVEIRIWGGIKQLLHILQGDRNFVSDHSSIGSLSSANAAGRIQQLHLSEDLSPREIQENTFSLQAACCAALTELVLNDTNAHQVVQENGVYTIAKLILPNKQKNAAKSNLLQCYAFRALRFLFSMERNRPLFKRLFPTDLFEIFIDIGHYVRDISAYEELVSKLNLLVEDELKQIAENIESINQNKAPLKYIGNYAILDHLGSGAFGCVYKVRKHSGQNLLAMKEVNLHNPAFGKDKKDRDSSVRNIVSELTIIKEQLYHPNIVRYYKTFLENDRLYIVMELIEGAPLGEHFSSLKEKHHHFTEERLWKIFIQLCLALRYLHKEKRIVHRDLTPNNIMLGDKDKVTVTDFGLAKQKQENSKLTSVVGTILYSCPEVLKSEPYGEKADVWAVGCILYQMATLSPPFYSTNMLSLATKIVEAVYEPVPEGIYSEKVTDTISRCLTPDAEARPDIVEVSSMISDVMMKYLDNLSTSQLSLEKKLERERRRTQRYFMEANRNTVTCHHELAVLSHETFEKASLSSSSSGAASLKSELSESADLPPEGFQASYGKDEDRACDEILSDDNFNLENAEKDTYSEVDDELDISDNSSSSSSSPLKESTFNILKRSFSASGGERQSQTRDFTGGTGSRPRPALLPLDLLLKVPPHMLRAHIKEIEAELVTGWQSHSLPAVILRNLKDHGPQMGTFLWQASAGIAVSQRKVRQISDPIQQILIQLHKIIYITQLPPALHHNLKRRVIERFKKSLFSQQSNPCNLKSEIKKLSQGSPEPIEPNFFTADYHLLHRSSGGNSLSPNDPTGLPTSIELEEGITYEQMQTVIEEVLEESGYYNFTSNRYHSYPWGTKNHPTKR
# Sequence of UniProt Q9C098 (whole entry, looked up): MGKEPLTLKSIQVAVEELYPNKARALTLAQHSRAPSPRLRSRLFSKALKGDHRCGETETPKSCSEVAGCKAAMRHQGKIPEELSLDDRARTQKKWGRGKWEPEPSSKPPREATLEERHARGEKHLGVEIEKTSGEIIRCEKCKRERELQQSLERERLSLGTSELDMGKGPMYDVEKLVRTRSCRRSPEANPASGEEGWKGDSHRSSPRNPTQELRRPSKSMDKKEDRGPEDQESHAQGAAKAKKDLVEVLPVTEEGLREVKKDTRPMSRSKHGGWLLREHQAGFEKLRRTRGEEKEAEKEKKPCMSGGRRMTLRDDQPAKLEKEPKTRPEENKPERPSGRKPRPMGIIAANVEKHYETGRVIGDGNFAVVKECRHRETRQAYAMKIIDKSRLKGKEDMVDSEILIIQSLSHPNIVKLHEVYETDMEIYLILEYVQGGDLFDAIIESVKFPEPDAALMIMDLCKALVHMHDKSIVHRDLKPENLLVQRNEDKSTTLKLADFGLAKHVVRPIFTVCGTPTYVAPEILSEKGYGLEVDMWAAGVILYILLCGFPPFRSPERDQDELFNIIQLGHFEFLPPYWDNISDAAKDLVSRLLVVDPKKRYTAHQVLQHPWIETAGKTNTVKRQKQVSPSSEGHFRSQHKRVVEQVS
# Sequence of UniProt Q9NRM7 (whole entry, looked up): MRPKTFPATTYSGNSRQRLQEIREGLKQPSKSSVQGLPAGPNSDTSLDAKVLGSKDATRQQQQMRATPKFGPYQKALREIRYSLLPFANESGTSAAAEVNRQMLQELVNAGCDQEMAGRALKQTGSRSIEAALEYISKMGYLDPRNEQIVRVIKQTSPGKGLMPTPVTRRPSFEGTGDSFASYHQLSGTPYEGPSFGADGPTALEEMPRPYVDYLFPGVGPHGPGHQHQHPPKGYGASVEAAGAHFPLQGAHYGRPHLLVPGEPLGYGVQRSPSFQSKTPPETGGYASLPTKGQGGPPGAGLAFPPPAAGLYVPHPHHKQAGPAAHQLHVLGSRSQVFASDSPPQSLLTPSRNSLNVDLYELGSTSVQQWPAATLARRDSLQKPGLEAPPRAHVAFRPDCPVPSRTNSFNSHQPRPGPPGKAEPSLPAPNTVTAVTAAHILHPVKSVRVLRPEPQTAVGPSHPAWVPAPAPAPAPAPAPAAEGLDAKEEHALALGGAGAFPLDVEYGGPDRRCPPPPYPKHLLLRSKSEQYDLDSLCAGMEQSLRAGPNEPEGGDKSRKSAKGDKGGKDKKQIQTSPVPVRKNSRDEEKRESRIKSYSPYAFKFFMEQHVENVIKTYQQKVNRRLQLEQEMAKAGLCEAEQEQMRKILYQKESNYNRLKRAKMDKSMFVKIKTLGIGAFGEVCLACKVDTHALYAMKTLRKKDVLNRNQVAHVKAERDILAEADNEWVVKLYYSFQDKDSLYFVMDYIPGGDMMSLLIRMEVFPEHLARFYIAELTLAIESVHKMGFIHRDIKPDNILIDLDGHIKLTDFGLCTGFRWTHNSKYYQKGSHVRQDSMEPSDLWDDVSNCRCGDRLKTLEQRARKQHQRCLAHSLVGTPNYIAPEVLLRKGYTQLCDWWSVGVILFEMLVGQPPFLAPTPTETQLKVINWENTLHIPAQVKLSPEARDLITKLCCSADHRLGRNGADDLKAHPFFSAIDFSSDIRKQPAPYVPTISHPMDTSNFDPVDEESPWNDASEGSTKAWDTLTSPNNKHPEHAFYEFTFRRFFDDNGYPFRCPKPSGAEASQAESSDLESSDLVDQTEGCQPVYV
# Sequence of UniProt Q9H2K8 (whole entry, looked up): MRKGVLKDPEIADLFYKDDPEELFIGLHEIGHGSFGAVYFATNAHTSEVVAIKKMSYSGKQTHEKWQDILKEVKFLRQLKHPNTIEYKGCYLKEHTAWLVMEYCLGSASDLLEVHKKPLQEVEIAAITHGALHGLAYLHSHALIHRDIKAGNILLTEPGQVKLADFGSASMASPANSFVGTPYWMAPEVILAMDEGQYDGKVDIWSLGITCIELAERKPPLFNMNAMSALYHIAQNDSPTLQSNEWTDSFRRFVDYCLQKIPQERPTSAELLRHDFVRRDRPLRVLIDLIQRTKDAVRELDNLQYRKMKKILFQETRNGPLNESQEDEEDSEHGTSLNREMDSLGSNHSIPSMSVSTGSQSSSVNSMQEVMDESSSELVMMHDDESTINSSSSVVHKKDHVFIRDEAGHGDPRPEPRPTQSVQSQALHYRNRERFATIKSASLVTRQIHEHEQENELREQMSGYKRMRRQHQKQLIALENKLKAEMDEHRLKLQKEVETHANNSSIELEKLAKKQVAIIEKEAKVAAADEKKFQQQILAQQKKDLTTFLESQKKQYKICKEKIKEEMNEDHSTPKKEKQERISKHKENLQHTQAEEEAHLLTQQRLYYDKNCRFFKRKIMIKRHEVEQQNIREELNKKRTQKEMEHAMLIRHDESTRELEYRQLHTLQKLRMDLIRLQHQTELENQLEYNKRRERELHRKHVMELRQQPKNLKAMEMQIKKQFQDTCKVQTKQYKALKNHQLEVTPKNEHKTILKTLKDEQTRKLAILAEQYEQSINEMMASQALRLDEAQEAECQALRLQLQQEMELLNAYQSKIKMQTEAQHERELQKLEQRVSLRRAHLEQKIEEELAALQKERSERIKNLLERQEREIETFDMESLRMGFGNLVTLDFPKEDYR

# Study 1
# Organism: Sarcocystis neurona
# Observed: parasite growth
# Tested at: 10 µM
# Setting: secondary screen
Structure (SMILES),inhibition [%]
COc1cc2c(cc1OC)C(=O)C(CC1CCN(Cc3ccccc3)CC1)C2 (stereo not shown),-54.8
COc1cc([C@@H]2c3cc4c(cc3[C@H](O)[C@H]3COC(=O)[C@H]23)OCO4)cc(OC)c1OC,1.1
C/C(=C\C(=O)OCCCCCCCCC(=O)O)C[C@@H]1OC[C@H](C[C@@H]2O[C@H]2[C@@H](C)[C@H](C)O)[C@@H](O)[C@H]1O,4

# Study 2
# Structure (SMILES): CN([C@@H]1CCc2c(CC(=O)O)c3cc(S(C)(=O)=O)ccc3n2C1)S(=O)(=O)c1ccc(F)cc1
# Observed: cell-free assay
# Method: competition with immobilised ligand
# Tested at: 1 µM
target,remaining binding [%]
"PIK3CA (Homo sapiens, UniProt P42336, H1047Y)",90
"MAP3K11 (Homo sapiens, UniProt Q16584)",100
"EPHB1 (Homo sapiens, UniProt P54762)",100
"Tyrosine-protein kinase ABL1, phosphorylated (ABL1, Homo sapiens, UniProt P00519, M351T)",86
"TNK1 (Homo sapiens, UniProt Q13470)",91
"KIT (Homo sapiens, UniProt P10721, A829P)",100
"BRSK1 (Homo sapiens, UniProt Q8TDC3)",94
"ROCK1 (Homo sapiens, UniProt Q13464)",6
"NEK10 (Homo sapiens, UniProt Q6ZWH5)",91
"LATS2 (Homo sapiens, UniProt Q9NRM7)",88
"KIT (Homo sapiens, UniProt P10721, T670I/V559D)",100
"SBK3 (Homo sapiens, UniProt P0C264)",49
"CLK4 (Homo sapiens, UniProt Q9HAZ1)",100
"DCLK3 (Homo sapiens, UniProt Q9C098)",71
"Tyrosine-protein kinase ABL1, phosphorylated (ABL1, Homo sapiens, UniProt P00519, Q252H)",79
"ERBB3 (Homo sapiens, UniProt P21860)",100
"TAOK1 (Homo sapiens, UniProt Q7L7X3)",95

# Study 3
# Host: human
# Matrix: microsomes or S9
# Tested at: 2 µM
# Time: 0.5 h
SMILES,remaining compound [%]
CC(C)(C)C(O)CN1C2=NCCN2c2ccccc21 (stereo not shown),96
CC1=C(c2ccc(F)cc2)S(=O)(=O)N=C1Nc1ccc2[nH]c(C(F)(F)F)nc2c1,49.8
O=S(=O)(NC1CCCCC1)c1ccc(-c2nnc(C3CCC3)o2)s1,20.5

# Study 4
# Cell line: A-375
# Tested at: 100 µM
# Time: 36 h
SMILES,viability
NCCc1ccc(O)c(O)c1,54.6%
CCN[C@@H]1C[C@H](N)[C@@H](O[C@H]2OC(CN)=CC[C@H]2N)[C@H](O)[C@H]1O[C@H]1OC[C@](C)(O)[C@H](NC)[C@H]1O,98.6%
CCOC(=O)C1=C[C@]2(CC)CCCN3CCc4c(n1c1ccccc41)[C@@H]32,21%

# Study 5
# Compound: Cc1ccc(NC(=O)c2ccnc(C(F)(F)F)c2)cc1-c1cc(OCCO)nc(N2CCOCC2)c1
# Observed: binding
# Tested at: 1 µM
target,method,remaining binding
"EGFR (Homo sapiens, UniProt P00533, T790M)",,100%
"TXK (Homo sapiens, UniProt P42681)",competition with immobilised ligand,97%
"TAOK3 (Homo sapiens, UniProt Q9H2K8)",competition with immobilised ligand,89%

# Study 6
# Cell line: mouse MPNST tumor cells
# Method: high-content nuclear imaging
# Measured: cell number
# Tested at: 10 µM
# Time: 12 h
# Setting: mean of 2 replicates
# Baseline: plate mean
# Direction: higher = more cells
SMILES,nuclei count [z-score]
O=C(Nc1ccc(CN2CCOCC2)cc1)c1ccc(-c2cccc(Cl)c2)o1,4.64
O=C1Cc2cc(CCN3CCN(c4nsc5ccccc45)CC3)c(Cl)cc2N1,-0.704
CNC[C@H](O)c1cccc(O)c1,1.38
NC(=O)c1cccc(-c2cccc(OC(=O)NC3CCCCC3)c2)c1,1.14

# Further values, each from its own experiment
Compound,target,observed,tested at,endpoint,result
COc1cc2ncnc(Nc3ccc(F)c(Cl)c3)c2cc1OCCCN1CCOCC1,"Cyclin-dependent kinase 9, with cyclin K (CDK9, Homo sapiens, UniProt P50750)",cell-free assay,0.5 µM,remaining signal,99.3%

# Some of these lines once more (study 3):
SMILES,remaining compound [%]
CC(C)(C)C(O)CN1C2=NCCN2c2ccccc21 (stereo not shown),96
CC1=C(c2ccc(F)cc2)S(=O)(=O)N=C1Nc1ccc2[nH]c(C(F)(F)F)nc2c1,49.8
O=S(=O)(NC1CCCCC1)c1ccc(-c2nnc(C3CCC3)o2)s1,20.5
